Earlier results, collected from citations in different studies.
Each line is one published result; not all experiments were run side by side. pEC50, pIC50: −log10 of the molar value.

| SMILES | target or system | assay | test system | conditions | endpoint | value |
| --- | --- | --- | --- | --- | --- | --- |
| O=c1oc2cc(O)ccc2c2oc3cc(O)ccc3c12 | – | ABTS radical scavenging | – | – | IC50 | 12.2 µg/mL |
| CC1Oc2ccccc2C=C1C=C1SC(=O)NC1=O (stereo not shown) | Mycobacterium tuberculosis | – | H37Rv | – | MIC | 0.36 µM |
| N/C(CC(O)c1cc2c(F)cc(F)cc2c2cc(C(F)(F)F)ccc12)=N\c1ccc(F)cc1 (stereo not shown) | Plasmodium falciparum | parasite growth | Dd2 Pfcarl I1139K (GNF156-resistant) | – | pIC50 | 8.15 |
| Cn1cc2cc(C(F)(F)c3nnc4ccc(-c5cnn(C6CC6)c5)nn34)c(F)cc2n1 | – | – | human, MET-altered NSCLC patients | dose not given, phase I | objective response rate | 30.5% |
| CC1(C)NC(=O)N(c2ccc(F)c(C(F)(F)F)c2)C1=O | Schistosoma mansoni | – | adult worms, mouse | oral, 25 mg/kg single dose | worm burden reduction | 83% |
| CC(C)Nc1nc2cc(Cl)c(Cl)cc2n1[C@H]1O[C@@H](CO)[C@H](O)[C@@H]1O | human cytomegalovirus | viral replication | UL97 F342Y mutant | – | pEC50 | 6.29 |
| C#Cc1ccc2c(c1)C(c1ccccc1F)=N[C@H](C)c1c(C(=O)OCC)ncn1-2 | rat brain GABA-A receptors | binding | – | – | pIC50 | 6.42 |
| COc1ccc2c(c1O)-c1c(O)c(OC)cc3c1[C@H](C2)[N+](C)(C)CC3 | – | ABTS radical scavenging | – | – | IC50 | 27.6 µg/mL |
| CC[C@@H]1C=CC(=O)O[C@@H]1C[C@@H](O)[C@H](C)[C@H](OC)[C@@H](C)C[C@@H]1O[C@H]1C (relative stereo) | A2780 ovarian cancer | cell growth | – | – | MIC | 0.54 µM |
| CN1CC[C@]23c4c5ccc(O)c4O[C@H]2[C@@H](O)C=C[C@@]3(O)[C@H]1C5 | – | antinociception | mouse | subcutaneous | ED50 | 2.9 mg/kg |
| FC1(F)C(F)(F)C(F)(F)C2(F)C(F)(C1(F)F)C(F)(F)C(F)(F)C1(F)C(F)(F)C(F)(F)C(F)(F)C(F)(F)C12F (stereo not shown) | CYP2D6 | inhibitor | – | Tox21 screening | IC50 | inactive |
| CC(=O)[C@H]1CC[C@H]2[C@@H]3CC[C@H]4C[C@@H](O)CC[C@]4(C)[C@H]3CC[C@]12C | – | protection in 6 Hz seizure test | mouse NIH Swiss male | intraperitoneal, 15 min pretreatment | ED50 | > 100 mg/kg |
| CC1(C)S[C@@H]2[C@H](NC(=O)[C@H](N)c3ccccc3)C(=O)N2[C@H]1C(=O)O | Mycobacterium tuberculosis | – | H37Ra | – | MIC | 128 µg/mL |
| N#C[Se]CCOc1ccc(Oc2ccccc2)cc1 | Trypanosoma cruzi | parasite growth | intracellular amastigotes | – | pEC50 | 6.96 |
| CC[C@@H](CO)NCCN[C@@H](CC)CO | Mycobacterium tuberculosis | – | H37Ra | – | MIC | 8 µg/mL |
| CC1(C)NC(=O)N(c2ccc(F)c(C(F)(F)F)c2)C1=O | Schistosoma mansoni | – | juvenile, infected mice | oral, 50 mg/kg single dose | worm burden reduction | 0% |
| CO[C@H]1/C=C/O[C@@]2(C)Oc3c(C)c(O)c4c(O)c(c(/C=N/N5CCN(C)CC5)c(O)c4c3C2=O)NC(=O)/C(C)=C\C=C\[C@H](C)[C@H](O)[C@@H](C)[C@@H](O)[C@@H](C)[C@H](OC(C)=O)[C@@H]1C | Mycobacterium tuberculosis | – | H37Ra | – | MIC | 0.06 µg/mL |
| O=C(O)C(F)(F)C(F)(F)C(F)(F)C(F)(F)C(F)(F)F | CYP3A4 | inhibitor | – | Tox21 screening | IC50 | inactive |
| O=C(/C=C/c1ccc(O)c(O)c1)OCCc1ccccc1 | – | ABTS radical scavenging | – | – | IC50 | 9.8 µg/mL |
| CO/N=C(\C(=O)N[C@@H]1C(=O)N2C(C(=O)O)=C(COC(C)=O)CS[C@H]12)c1csc(N)n1 | Mycobacterium tuberculosis | – | H37Ra | – | MIC | 64 µg/mL |
| CCCCCc1cc(O)cc(O)c1 | – | DMPD radical scavenging | – | – | IC50 | 19.2 µg/mL |
| CC(=O)O[C@H]1C[C@@]2(C)[C@@H](C[C@@H](O)[C@H]3[C@@]4(C)CC[C@@H](O)[C@@H](C)[C@@H]4CC[C@@]32C)/C1=C(\CCC=C(C)C)C(=O)O | Mycobacterium tuberculosis | – | H37Ra | – | MIC | 3 µg/mL |
